Results collected from several papers.
Parts stem from different laboratories: compare values within a part only. Values joined by “and” are separate records of one study, mostly repeats; a detail may differ. Numbers after ± are the reported error.
Chain of UniProt P06493 (whole entry, looked up): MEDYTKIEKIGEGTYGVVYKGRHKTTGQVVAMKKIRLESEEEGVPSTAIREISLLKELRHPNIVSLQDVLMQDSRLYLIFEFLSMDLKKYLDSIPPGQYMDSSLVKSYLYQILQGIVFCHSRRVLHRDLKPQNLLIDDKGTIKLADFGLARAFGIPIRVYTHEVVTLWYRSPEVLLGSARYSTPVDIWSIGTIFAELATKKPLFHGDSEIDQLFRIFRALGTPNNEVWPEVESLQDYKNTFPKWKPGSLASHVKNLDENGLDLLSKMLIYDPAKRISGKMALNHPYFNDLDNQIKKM
Chain of UniProt Q8N568 (whole entry, looked up): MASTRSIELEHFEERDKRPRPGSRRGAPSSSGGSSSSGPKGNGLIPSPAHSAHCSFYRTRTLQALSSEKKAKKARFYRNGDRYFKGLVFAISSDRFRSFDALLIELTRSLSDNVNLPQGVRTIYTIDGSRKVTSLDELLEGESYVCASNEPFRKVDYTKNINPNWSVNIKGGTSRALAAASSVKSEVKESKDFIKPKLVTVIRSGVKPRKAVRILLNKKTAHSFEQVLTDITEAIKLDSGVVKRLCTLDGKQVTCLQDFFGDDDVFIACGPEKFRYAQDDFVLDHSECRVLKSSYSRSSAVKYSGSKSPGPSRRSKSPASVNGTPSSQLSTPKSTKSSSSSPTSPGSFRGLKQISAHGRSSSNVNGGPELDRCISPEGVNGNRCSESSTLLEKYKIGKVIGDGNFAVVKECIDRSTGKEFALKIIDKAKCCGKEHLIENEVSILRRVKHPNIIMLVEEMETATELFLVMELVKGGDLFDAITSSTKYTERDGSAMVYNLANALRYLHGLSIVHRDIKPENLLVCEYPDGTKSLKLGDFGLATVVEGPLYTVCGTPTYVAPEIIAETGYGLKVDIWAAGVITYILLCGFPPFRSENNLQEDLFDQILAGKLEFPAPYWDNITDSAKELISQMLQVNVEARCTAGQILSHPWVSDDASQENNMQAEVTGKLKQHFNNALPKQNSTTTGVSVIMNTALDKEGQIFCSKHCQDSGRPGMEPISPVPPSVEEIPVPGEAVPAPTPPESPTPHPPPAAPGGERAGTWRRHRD
Chain of UniProt P50750 (whole entry, looked up): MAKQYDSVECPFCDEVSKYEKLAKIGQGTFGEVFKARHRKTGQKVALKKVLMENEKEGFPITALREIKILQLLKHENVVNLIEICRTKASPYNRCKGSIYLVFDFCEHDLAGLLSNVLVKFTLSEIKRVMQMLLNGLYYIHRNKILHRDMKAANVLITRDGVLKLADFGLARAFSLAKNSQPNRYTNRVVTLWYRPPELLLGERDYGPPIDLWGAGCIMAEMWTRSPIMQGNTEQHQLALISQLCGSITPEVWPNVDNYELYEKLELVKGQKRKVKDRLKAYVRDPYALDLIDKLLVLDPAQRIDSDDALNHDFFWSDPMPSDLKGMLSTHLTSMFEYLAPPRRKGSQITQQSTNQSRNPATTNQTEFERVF
Chain of UniProt Q13464 (whole entry, looked up): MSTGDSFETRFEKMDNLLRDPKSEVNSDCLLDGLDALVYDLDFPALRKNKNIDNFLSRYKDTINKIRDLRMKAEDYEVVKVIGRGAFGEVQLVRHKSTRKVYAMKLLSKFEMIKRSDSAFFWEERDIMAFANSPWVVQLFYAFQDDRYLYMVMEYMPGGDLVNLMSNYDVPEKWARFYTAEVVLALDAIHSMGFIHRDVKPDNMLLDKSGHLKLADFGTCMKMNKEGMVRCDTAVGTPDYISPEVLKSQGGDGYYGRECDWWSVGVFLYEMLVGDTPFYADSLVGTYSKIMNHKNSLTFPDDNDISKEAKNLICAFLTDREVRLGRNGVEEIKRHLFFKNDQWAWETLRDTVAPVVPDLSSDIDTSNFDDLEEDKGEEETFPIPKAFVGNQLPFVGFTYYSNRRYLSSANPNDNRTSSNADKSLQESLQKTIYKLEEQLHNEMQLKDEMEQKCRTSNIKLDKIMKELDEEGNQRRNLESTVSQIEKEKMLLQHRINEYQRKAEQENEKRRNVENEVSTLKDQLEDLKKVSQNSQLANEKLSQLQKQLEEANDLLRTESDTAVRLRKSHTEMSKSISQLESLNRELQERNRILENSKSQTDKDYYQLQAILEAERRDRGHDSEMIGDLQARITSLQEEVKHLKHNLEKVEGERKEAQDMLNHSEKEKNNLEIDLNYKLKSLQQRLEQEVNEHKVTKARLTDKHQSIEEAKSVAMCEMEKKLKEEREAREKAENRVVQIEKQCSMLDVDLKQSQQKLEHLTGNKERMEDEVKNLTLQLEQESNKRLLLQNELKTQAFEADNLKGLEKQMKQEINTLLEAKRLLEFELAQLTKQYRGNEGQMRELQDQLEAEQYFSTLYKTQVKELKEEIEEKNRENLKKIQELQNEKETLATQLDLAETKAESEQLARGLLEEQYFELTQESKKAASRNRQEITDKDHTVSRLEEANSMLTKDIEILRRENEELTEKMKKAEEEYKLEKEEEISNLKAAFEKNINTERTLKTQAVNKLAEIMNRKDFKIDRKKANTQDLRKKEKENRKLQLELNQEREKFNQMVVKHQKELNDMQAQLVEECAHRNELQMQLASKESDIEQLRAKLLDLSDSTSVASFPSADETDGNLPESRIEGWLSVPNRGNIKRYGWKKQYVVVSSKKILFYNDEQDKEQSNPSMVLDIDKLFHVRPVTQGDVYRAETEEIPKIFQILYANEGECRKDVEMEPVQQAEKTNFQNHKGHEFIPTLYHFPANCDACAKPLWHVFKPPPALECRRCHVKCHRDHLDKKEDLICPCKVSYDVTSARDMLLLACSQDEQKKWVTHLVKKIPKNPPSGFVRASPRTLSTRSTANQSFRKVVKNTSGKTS
Chain of UniProt P51956 (whole entry, looked up): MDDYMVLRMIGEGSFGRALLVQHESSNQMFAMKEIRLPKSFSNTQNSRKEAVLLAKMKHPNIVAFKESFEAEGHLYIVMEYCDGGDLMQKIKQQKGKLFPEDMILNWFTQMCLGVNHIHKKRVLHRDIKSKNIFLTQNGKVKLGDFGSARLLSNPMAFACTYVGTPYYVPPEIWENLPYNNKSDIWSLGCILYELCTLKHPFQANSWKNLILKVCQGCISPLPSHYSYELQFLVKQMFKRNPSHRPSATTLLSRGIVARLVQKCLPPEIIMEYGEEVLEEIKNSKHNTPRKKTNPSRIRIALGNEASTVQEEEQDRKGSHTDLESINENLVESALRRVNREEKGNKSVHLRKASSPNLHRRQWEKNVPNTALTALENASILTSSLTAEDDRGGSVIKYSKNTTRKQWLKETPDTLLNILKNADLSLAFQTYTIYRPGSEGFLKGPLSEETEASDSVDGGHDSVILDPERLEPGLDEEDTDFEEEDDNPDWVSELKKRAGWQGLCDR
Chain of UniProt Q5BJF2 (whole entry, looked up): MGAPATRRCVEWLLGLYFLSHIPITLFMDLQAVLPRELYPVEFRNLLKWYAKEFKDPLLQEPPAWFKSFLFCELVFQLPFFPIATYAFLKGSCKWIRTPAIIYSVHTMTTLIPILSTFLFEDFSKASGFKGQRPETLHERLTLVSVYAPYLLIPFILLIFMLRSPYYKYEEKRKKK
Chain of UniProt P31751 (whole entry, looked up): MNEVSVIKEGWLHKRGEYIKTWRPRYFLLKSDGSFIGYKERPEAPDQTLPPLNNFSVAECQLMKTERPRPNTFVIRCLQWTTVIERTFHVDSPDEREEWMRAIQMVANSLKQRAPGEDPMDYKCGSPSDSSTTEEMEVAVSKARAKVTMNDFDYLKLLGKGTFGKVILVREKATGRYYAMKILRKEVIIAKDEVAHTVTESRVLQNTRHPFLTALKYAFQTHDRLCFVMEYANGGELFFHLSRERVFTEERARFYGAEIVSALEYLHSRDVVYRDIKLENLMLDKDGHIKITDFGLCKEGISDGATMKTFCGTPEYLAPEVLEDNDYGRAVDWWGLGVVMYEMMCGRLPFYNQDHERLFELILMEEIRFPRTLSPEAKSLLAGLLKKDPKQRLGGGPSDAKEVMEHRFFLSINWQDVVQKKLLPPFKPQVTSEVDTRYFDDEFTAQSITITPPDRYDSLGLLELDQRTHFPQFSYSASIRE
Chain of UniProt Q13237 (whole entry, looked up): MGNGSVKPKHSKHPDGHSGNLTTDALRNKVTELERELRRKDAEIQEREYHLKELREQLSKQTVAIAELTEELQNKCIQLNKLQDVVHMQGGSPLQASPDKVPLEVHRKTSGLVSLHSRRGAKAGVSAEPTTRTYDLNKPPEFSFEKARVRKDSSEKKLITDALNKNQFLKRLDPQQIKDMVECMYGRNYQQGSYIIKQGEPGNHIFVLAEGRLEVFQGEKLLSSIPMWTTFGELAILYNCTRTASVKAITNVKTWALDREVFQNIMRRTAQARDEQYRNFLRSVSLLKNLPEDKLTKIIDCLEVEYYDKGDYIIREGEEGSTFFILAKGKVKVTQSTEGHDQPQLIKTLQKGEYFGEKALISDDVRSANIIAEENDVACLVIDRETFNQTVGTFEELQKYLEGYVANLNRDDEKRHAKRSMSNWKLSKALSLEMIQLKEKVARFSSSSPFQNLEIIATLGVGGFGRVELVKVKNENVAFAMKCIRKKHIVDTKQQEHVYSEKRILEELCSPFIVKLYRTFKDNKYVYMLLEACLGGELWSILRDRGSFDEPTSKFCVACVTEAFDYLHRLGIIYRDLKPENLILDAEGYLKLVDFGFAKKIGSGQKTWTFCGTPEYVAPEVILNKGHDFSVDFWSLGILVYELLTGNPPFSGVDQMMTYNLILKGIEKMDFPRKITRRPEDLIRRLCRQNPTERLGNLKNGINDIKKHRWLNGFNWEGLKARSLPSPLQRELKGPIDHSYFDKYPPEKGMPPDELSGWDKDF

Series 1 — SMILES: CC(=O)c1ccc(N2CCOCC2)cc1O; effect on: enzyme activity; action: inhibitor; tested at: 0.5 µM; baseline: control
target | remaining activity [%]
Cyclin-dependent kinase 1, with cyclin A (CDK1, Homo sapiens, UniProt P06493) | 99.8
Vascular endothelial growth factor receptor 2 (KDR, Homo sapiens, UniProt P35968) | 97.7
Serine/threonine-protein kinase PAK 3 (PAK3, Homo sapiens, UniProt O75914) | 93.9
Serine/threonine-protein kinase PLK3 (PLK3, Homo sapiens, UniProt Q9H4B4) | 98.1
Serine/threonine-protein kinase DCLK2 (DCLK2, Homo sapiens, UniProt Q8N568) | 101
Mitogen-activated protein kinase 1 (MAPK1, Homo sapiens, UniProt P28482) | 97.6
Rho-associated protein kinase 1 (ROCK1, Homo sapiens, UniProt Q13464) | 92.9
RAC-beta serine/threonine-protein kinase (AKT2, Homo sapiens, UniProt P31751) | 96.2
Misshapen-like kinase 1 (MINK1, Homo sapiens, UniProt Q8N4C8) | 94.3
Calcium/calmodulin-dependent protein kinase type 1B (PNCK, Homo sapiens, UniProt Q6P2M8) | 103
Cyclin-dependent kinase 9, with cyclin K (CDK9, Homo sapiens, UniProt P50750) | 106
cGMP-dependent protein kinase 2 (PRKG2, Homo sapiens, UniProt Q13237) | 107
Serine/threonine-protein kinase MARK2 (MARK2, Homo sapiens, UniProt Q7KZI7) | 107
Serine/threonine-protein kinase Nek3 (NEK3, Homo sapiens, UniProt P51956) | 103

Series 2 — effect on: acetyl-histone H4 peptide binding; method: AlphaScreen displacement; tested at: 50 µM
Target: Bromodomain-containing protein 4, BD1 (BRD4, Homo sapiens, UniProt O60885)
Structure (SMILES) | inhibition
O=C(CSc1ccc2nnc(-c3cccc(F)c3)n2n1)Nc1ccc(Cl)cc1 | -5.25%
Cc1sc2nc[nH]c(=O)c2c1-c1ccc(F)cc1 | 6.2%
COc1ccc(-c2nnc(SCC(=O)Nc3ccc(F)cc3F)n2-n2cccc2)cc1 | 6.7%
CCOC(=O)N1CCN(c2nc(N)nc3[nH]cnc23)CC1 | 3.65%
Cc1cc(C(=O)C(C#N)=Cc2ccncc2)c(C)n1-c1ccccc1F | 38.9%
CCOC(=O)c1ccc(NC(=O)Nc2ccc(Cl)c(Cl)c2)cc1 | -10.3%
O=C(Nc1nnc(SCc2ccc(F)cc2)s1)c1ccc(F)cc1 | 3.4%
Cc1c(C(=O)OC(C)C)sc2nc[nH]c(=O)c12 | 1.8%
COC(=O)CCC(=O)NNC(=O)c1c(O)c2ccccc2[nH]c1=O | 29.2%
COc1cccc(Nc2ncc3c(n2)CCNC3)c1 | 10.7%

Series 3 — effect on: kinase activity
SMILES: COc1cc(C(=O)N2CCC(N3CCN(C)CC3)CC2)ccc1Nc1ncc2c(n1)N(C)c1ccccc1C(=O)N2C
target | tested at | remaining activity
CHK1 | 10 µM | 96 ± 12%
JNK3 | 1 µM | 92 ± 9%
MKK1 | 1 µM | 94 ± 3%
MNK1 | 1 µM | 86 ± 4%
MSK1 | 10 µM | 84 ± 6%
IKKb | 10 µM | 106 ± 7%
MST4 | 1 µM | 90 ± 9%
PKBa | 10 µM | 81 ± 6%
BRSK2 | 10 µM | 87 ± 9%

Single results of other studies
SMILES | tested on | test | setting | endpoint | result
COc1ccc2c(c1)O[C@@H](c1ccc(OC)c(OC)c1)C[C@H]2NC(=O)C1(c2ccc3c(c2)OC(F)(F)O3)CC1 (single isomer, unassigned) | Sigma intracellular receptor 2 (TMEM97, Homo sapiens, UniProt Q5BJF2) | binding | off-target scan | Ki | 0.584 µM
Cn1cncc1[C@@](O)(COc1ccc(C#N)cc1-c1ccc(OC(F)(F)F)cc1)c1ccc(C#N)cc1 | HEK293T | high-content imaging | 10 µM, 12 h | cells with healthy nuclei | 65.8% and 36.4%

Some of these lines once more (series 1):
target | remaining activity [%]
Misshapen-like kinase 1 (MINK1, Homo sapiens, UniProt Q8N4C8) | 94.3
Serine/threonine-protein kinase MARK2 (MARK2, Homo sapiens, UniProt Q7KZI7) | 107
Serine/threonine-protein kinase DCLK2 (DCLK2, Homo sapiens, UniProt Q8N568) | 101
Cyclin-dependent kinase 9, with cyclin K (CDK9, Homo sapiens, UniProt P50750) | 106
Serine/threonine-protein kinase PAK 3 (PAK3, Homo sapiens, UniProt O75914) | 93.9
Vascular endothelial growth factor receptor 2 (KDR, Homo sapiens, UniProt P35968) | 97.7
